Published values gathered from unrelated publications.
Numbered parts are unrelated; each lists some results of a single study. Changes are numbered by the printed parent chain.

Sample 1
Target: Sal-like protein 4, full length isoform B (SALL4, Homo sapiens, UniProt Q9UJQ4-2, residues 1-616)
Method: universal PBM
Molecule type: double-stranded DNA, one strand shown
Matrix: in vitro
Concentration: not given
Notes: 8-mer, flanks averaged, mean of replicates
Direction: higher = stronger binding
Residues (chain): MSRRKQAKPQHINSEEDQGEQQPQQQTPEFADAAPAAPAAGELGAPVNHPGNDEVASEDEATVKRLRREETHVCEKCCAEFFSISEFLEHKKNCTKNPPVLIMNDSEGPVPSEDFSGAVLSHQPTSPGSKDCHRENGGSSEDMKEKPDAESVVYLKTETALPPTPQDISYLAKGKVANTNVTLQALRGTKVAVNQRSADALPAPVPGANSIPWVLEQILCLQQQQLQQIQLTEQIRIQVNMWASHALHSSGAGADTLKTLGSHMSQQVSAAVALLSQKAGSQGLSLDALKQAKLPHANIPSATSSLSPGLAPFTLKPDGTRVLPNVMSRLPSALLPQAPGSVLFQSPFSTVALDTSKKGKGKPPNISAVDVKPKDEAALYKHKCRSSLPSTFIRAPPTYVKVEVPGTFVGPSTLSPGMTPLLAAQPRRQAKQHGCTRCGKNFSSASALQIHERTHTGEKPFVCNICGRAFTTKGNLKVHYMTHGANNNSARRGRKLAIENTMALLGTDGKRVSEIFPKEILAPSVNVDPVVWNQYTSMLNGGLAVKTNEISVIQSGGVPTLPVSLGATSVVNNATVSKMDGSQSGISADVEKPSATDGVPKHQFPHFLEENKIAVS
Oligonucleotide	E-score
CAGGTCAC	-0.346
GAAAAGCC	-0.188
TAACCGTA	0.124
AGCGCAAT	0.137
GGTCGGAA	-0.166
AAGTCCCT	-0.0734
AGTTCCGC	-0.195
CTCGACTA	-0.079
ACAAAGCG	0.0326
ATATGCAT	0.332
GGACTAAC	-0.133
CATCCGTC	-0.0441
ATAATTCA	0.394
CTCCAAAA	0.0425
ACTGCAAT	0.0619
GCCTGGAC	-0.205
GGTACGAA	0.061
CGAGGCTA	-0.0381
CTGCCCCA	-0.145
AAGTCATG	0.0562
ATCACGAC	-0.0166
AATCCACC	-0.0156
ACTCTTGG	-0.0787
AATAGGAA	0.277
AATACGCG	0.00975

Sample 2
Target: PABPC1L2, full length, GST fusion (mouse, UniProt A0ABA7IW68)
Method: RNAcompete
Molecule type: RNA
Matrix: in vitro
Concentration: 20 nM
Notes: 7-mer, probes averaged, single round
Relative to: mean of 7-mers
Direction: higher = stronger binding
Target sequence (chain): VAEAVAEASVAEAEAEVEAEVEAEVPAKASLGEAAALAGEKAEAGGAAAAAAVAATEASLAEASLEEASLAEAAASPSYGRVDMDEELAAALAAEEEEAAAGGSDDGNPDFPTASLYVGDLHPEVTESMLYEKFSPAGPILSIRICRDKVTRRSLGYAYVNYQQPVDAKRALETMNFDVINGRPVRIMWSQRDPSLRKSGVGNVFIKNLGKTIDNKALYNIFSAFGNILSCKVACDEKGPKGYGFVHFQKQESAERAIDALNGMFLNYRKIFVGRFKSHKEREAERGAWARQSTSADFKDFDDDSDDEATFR
Oligonucleotide	7-mer Z-score
GAAAGGG	0.573
CCUCAUU	-0.253
UAAACGC	0.283
AGUGCCC	-0.162
GUACAUC	-0.0627
CGCCAGC	-0.336
UAGAUUA	-0.0446
AGCUCGU	-0.338
CCUGAAA	0.439
AAGCCCG	-0.0899
GCGGUGC	0.075
UUAUACU	-0.376
CGGUGUC	-0.166
UUUCCAA	-0.266
UUCUAAC	-0.449
GGGAGGC	0.312
GCAUGGG	0.0895

Sample 3
Target: JUND, bZIP domain (human)
Method: DHFR protein complementation
Matrix: yeast
Notes: single substitutions, most at no-binding floor
Relative to: wild-type JUN-FOS pair
Direction: higher = stronger binding
Parent: JUN, bZIP domain (human); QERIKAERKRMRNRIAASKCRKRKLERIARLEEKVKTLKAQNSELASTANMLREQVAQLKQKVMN; partner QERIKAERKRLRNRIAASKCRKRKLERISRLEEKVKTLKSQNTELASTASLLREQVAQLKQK
Variant	binding fitness
A29E	-0.998 natural log
A29N	-0.787 natural log
T37L	-0.528 natural log
T37Q	-0.346 natural log
Q58A	-0.683 natural log
A49V	-0.0372 natural log
S43A	-0.401 natural log
A29S	-0.84 natural log
A29W	-0.978 natural log
A29V	-1.05 natural log
Q41N	-1.18 natural log
E32A	-0.781 natural log
M51N	-0.671 natural log
R30G	-0.812 natural log
K36N	-0.78 natural log
K39H	-0.867 natural log

Sample 4
Target: Interferon regulatory factor 5, full length, phosphomimetic (IRF5, Homo sapiens, UniProt Q13568-2, residues 1-514, K96S/S451D/S453D/S456D/S462D)
Method: protein-binding microarray
Molecule type: double-stranded DNA, one strand shown
Matrix: in vitro
Concentration: 250 nM
Notes: 60-bp whole probe
Added: salmon DNA 0.4 mg/ml
Relative to: random background probes
Direction: higher = stronger binding
Shared flanks, not repeated: GCCTAGCAC … GTCTTGATTCGCTTGACGCTGCTG
Oligonucleotide	log fluorescence [z-score]
GACGCTATCGGGTTTCGGGACGTGCTA	4.89
GTAGGTTTCCTTTCCCTTTAGTGCTAG	1.65
TTAGGACTAGGTATCGGTTAGTGCTAG	4.53
GACGGTCTCCTTATCCTGCCGTGCTAG	-0.115
TTAGGTTTCGACTATCGGCTAGTGCTA	8.43
GACGATTTCATTCTCGAGACGTGCTAG	1.43
TTAGATTTCGGGACTTGATTAGTGCTA	2.32
GACAGACTGGACTATCGGGACGTGCTA	0.93
GACGATCTCAGTCTCCAGACGTGCTAG	-0.196
CGTACTGTATCTAGCCTTGCGTGCTAG	-0.197
CTAGGTTTCGACTTTCGGTTAGTGCTA	10.3
TTAGGTCTCGATATCGGTTAGTGCTAG	3.71
GACGATATCAGACTGGCGACGTGCTAG	0.238
GAAGATATCAGTCTCGAGACGTGCTAG	0.753
TCCATCATTGCTTTCTCTTTGTGCTAG	2.22
TCACCTCCCTGTTTCCAACTGTGCTAG	0.0615
TCATGTCTGGGATTTTGACTGTGCTAG	-0.284

Sample 5
Target: Histone acetyltransferase KAT6A, both winged helices, GST fusion (KAT6A, Homo sapiens, UniProt Q92794, residues 1-181)
Method: protein binding microarray
Molecule type: double-stranded DNA, one strand shown
Matrix: in vitro
Concentration: not given
Notes: 8-mer, flanks averaged, mean of 2 arrays, mostly near background
Relative to: not given
Direction: higher = stronger binding
Target sequence (chain): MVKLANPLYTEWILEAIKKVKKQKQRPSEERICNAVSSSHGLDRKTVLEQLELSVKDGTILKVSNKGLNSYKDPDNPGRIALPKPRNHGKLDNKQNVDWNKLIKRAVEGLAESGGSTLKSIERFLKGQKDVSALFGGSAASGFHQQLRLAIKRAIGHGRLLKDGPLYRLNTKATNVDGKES
Oligonucleotide	E-score
TAACTCTA	-0.258
CTCCGTAA	0.109
AATCTCTG	-0.218
CAGTCCCA	-0.186
CAGGACAC	-0.114
GCGGAGTA	0.0867
CGATTCCC	0.0148
CAACTCTG	-0.105
CGCGAGTA	0.236
AGTCGATC	-0.088
GCAACCGC	0.195
TGCAAACA	-0.0652
GAGCGATC	0.146
AAAACTGC	-0.0386
AGCACTCC	-0.0637
GTCGCGCA	0.295
ACGGCTAA	0.218
CCCGATTA	0.101
AGATGACA	-0.145
CCTCTCCC	-0.174
GTTCTACA	-0.0624
GTTCGTTA	-0.0278
AAAACACA	-0.115
CGAGGACC	0.0735
CCTTGCAA	-0.13

Sample 6
Target: RNA binding protein fox-1 homolog 2, RRM domain, GST-SBP tag (RBFOX2, Homo sapiens, UniProt O43251-10, residues 100-194)
Method: RNA Bind-n-Seq
Molecule type: RNA
Matrix: in vitro
Concentration: 365 nM
Notes: natural RNA segment, single round, ends assumed
Relative to: no-protein control
Direction: higher = stronger binding
Construct (chain): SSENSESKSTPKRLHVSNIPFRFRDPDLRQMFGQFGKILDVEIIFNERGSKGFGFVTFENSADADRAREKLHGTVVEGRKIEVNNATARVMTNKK
Oligonucleotide	RBNS enrichment (R)
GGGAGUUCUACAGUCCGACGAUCUUCUAGCCACUCCACAAACCACUAAAAUUUUAGUUUUAGCCUAUCACUCAUGUCAAUCAUAUCUAUGAGACAAAUGUCUCCGAUGCUCUUCUGCGUAAAUUAAAUUGUGUUGGAAUUCUCGGGUGCCAA	0.852
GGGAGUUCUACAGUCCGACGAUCACAUUCCAUGGAGAAUGCAUUCAUCAAACGGCCCGAAAGAAGCUACAUUUUGUUGGGAAGCUGGAUAAGUUUUAGGUGCAGGACCCCAAAUGUUCUGAGACCUUUGGGGCUGGAAUUCUCGGGUGCCAA	0.788
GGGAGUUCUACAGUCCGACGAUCUUCCCUUAUUGCCUUAUUGUCCCUGGCCACAAACUGUUCAUCUCUUCUCUAAUGUGUAAGUGGAGCCUGAACUGCAGGGGCUCUUUAUAUUCCAAACAACCCAGGGUUAGUGGAAUUCUCGGGUGCCAA	0.935
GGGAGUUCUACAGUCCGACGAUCUCAGUAGCCUUGUGACACUGAACCUGGAUGGAUUAUAGAGGAGCCCUCACGGCUGAUCAAUAAUGUUGCAAAGGGAGACUACAGGGAUCUCACGACGAAUAUUCUGAUACUGGAAUUCUCGGGUGCCAA	0.301
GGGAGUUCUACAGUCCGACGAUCAACCAGUGAAAAUGAAAGGAAGUUUCAGUAUUAGAUGCACUUAAGUUAGCCUCCACCACCCUUUCCCCCUUCUCUUAGUUAUUGCUGAAGAGGGUUGGUAUAAAAAUAAUUGGAAUUCUCGGGUGCCAA	0.595
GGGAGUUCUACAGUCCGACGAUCAGAAAAUCUCAGUUUUGAUGAUUACGUUGCUUUUUUGUCCAGUAGUUUGGUUUAUAUACAUAAAUAUUCUUUGCACUACACAAAUGGUAACAUUUUAAAGACUAAUAUUGUGGAAUUCUCGGGUGCCAA	0.401
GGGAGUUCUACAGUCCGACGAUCUGUGCCAUUUUCCCAACUUGGCGUUUCACUAAAUGCAGCUGAUCUCUCUCUCUGUGCACUCGUGAUCCAUGUUGAACAAUACAUGUAGGUUCUUUUUCCACGCAAUGUAAUGGAAUUCUCGGGUGCCAA	0.358
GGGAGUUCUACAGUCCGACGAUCAAUGACGUUUCUGAGAACCAUGUUCUUUUUAUACUAAAAUCUGGGGAUGGGAGGGCUCAUUUGUUGAUAAAUAGCACUAUUUUCCCACACCUCAGCCUCCUGUCCCCGUCUGGAAUUCUCGGGUGCCAA	0.464
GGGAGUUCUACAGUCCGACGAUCUCUUGGUGUUUUCACGUUCGUCUGUGAGGACUCAUAGACUUACAGAAUGAUGCCGAAUGGAAUGUUUUGUGCAUGACCUUUUAACCUUUGGCUAUUGCCAAUUCCCCACUUGGAAUUCUCGGGUGCCAA	1.02
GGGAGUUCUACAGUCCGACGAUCUCCAGAAACCACACUUAGUGGUAACCCUGGUGCUCUCUAGAAUCUCCAAAUGAGCUGCUAUAAAACACCUUUCAGGGGCUGAGAUGCAGCUCUGGUGUGAGUCACUUACCUGGAAUUCUCGGGUGCCAA	0.214
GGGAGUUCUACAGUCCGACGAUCGGAAUAUUGGGGAAUAGAAGGGAUUGAGGAAACAUUAAUAAUAGUUAUUCAAAAGACCCAAAUGCUUAUACUUCUCUCUCCCUUCUUCUCUCUCUGACACACACACACACUGGAAUUCUCGGGUGCCAA	0.815
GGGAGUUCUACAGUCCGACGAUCGUGUUCUUUGAUUUAUAAUCCUUGUUUGCUCAAUAAAAAGAAAAAAUAAUUUGAUUCAUUUGCCCUCUUUGGUCUGUUUAUGGUUCUUUCUUUUUCUAAAAUUUAUUUAUUGGAAUUCUCGGGUGCCAA	1.3

Some of these lines once more (sample 3):
Variant	binding fitness
T37Q	-0.346 natural log
A29S	-0.84 natural log
Q41N	-1.18 natural log
A29E	-0.998 natural log
K36N	-0.78 natural log
A29V	-1.05 natural log
K39H	-0.867 natural log
E32A	-0.781 natural log
Q58A	-0.683 natural log
A49V	-0.0372 natural log
